Published values collected from several papers.
Protocols differ between the studies behind these lines. “And” joins repeats or separate records; there may be more than shown. ± marks the error that the study gave.

CC[C@@H]1CN2CCc3c([nH]c4cccc(OC)c34)[C@@H]2C[C@@H]1/C(=C\OC)C(=O)OC  IC50 (rabbit anti-mitragynine polyclonal IgG; antigen binding, competitor, competitive indirect ELISA; 10% methanol; 60 min both antibody incubations): 1 µg/mL
CC[C@H](C)[C@@H]1NC(=O)[C@H](Cc2c[nH]cn2)NC(=O)[C@H](CC(N)=O)NC(=O)[C@H](CO)NC(=O)[C@H](CCC(N)=O)NC(=O)[C@@H](NC(=O)CN)CSSC[C@@H]2NC(=O)CNC(=O)[C@H](C)NC(=O)[C@H](CC(C)C)NC(=O)[C@@H]3CSSC[C@@H](C(=O)NCC(=O)O)NC(=O)[C@H](Cc4ccccc4)NC(=O)CNC(=O)[C@H](CC(N)=O)NC(=O)[C@@H]4CCCN4C(=O)CNC(=O)[C@H](CSSC[C@H](NC(=O)[C@H](CCCNC(=N)N)NC(=O)[C@H](CC(N)=O)NC(=O)[C@H](Cc4c[nH]cn4)NC(=O)[C@H](CCCCN)NC(=O)[C@H](CC(C)C)NC1=O)C(=O)N[C@@H](CCCCN)C(=O)N[C@@H](CCC(N)=O)C(=O)N[C@@H](CC(=O)O)C(=O)N[C@@H](CO)C(=O)N[C@@H](CC(=O)O)C(=O)N3)NC(=O)[C@H](C(C)C)NC2=O  IC50 (HEK293-TB; Wnt signaling; added: exogenous Wnt3a): > 100 µM
CN1C(=O)C(C2C3=C(CC(C)(C)CC3=O)Oc3ccc(Cl)cc32)C(=O)N(C)C1=O (centres unmarked)  IC50 (3T3-L1 pre-adipocytes; cell viability, MTT; 72 h): > 100 µg/mL
NCCCO.O=C(O)C(Cl)Cl  inhibition (Amaranthus retroflexus; herbicidal activity; 15 mg/mL, 21 days, pre-emergence greenhouse): 0%
CC[C@H](C)[C@H](NC(=O)[C@H](CC(=O)O)NC(=O)[C@@H](NC(=O)[C@@H]1CCCN1C(=O)[C@@H](N)CCCNC(=N)N)[C@@H](C)O)C(=O)N[C@@H](CCCCN)C(=O)N[C@H]1CSSC[C@@H]2NC(=O)[C@H](CCCNC(=N)N)NC(=O)CNC(=O)[C@H](CC(N)=O)NC(=O)[C@H]([C@@H](C)O)NC(=O)[C@H](CCCCN)NC(=O)CNC(=O)[C@H](Cc3ccccc3)NC(=O)[C@H](CCCNC(=N)N)NC(=O)[C@H](CO)NC(=O)[C@H](CCCCNC(=O)OCc3cc(OC)c(OC)cc3[N+](=O)[O-])NC(=O)[C@@H]3CSSC[C@@H](C(=O)N[C@@H](Cc4ccccc4)C(=O)O)NC(=O)[C@H](CC(=O)O)NC(=O)[C@H](CSSC[C@H](NC(=O)[C@H](CCC(N)=O)NC(=O)[C@H](Cc4ccc(O)cc4)NC(=O)[C@H](CO)NC(=O)[C@H](CCC(=O)O)NC(=O)[C@H](CO)NC1=O)C(=O)N[C@@H](Cc1ccccc1)C(=O)N1CCC[C@H]1C(=O)N[C@@H](C(C)C)C(=O)N3)NC(=O)[C@H](Cc1ccccc1)NC(=O)CNC(=O)[C@H](CC(N)=O)NC(=O)[C@H](C(C)C)NC2=O  APD90 increase (human iPS-derived cardiomyocytes; 200 nM, after illumination 365 nm; reference: no illumination): 1.3 fold
CC(C)C[C@H](NC(=O)[C@H](CC(=O)O)NC(=O)[C@@H](NC(=O)[C@H](CCC(=O)O)NC(=O)[C@H](CCCCN)NC(=O)[C@H](Cc1ccc(O)cc1)NC(=O)[C@H](CCCCN)NC(=O)[C@H](Cc1c[nH]cn1)NC(=O)CNC(=O)CN)[C@@H](C)O)C(N)=O  initial cleavage rate (HCV IRES RNA; MALDI-TOF mass spectrometry, measured: 3'-phosphate products; hepatitis C virus): 2.8 ± 0.2 %/min
Cc1cc(Oc2nc(N3CC[C@@H](c4ccncc4)C3)ncc2F)[nH]n1  normalised growth (Mycobacterium tuberculosis; OD; H37Rv PurF CRISPRi knockdown; 0.001953 µM, added: anhydrotetracycline low): 25% and 26% and 23%
FC(F)(F)c1cccc(CNc2nc(NC3CCN(Cc4ccccc4)CC3)c3nc[nH]c3n2)c1  fold change (Cryptococcus neoformans; mRNA level, RNA-seq, measured: ASP1 CNAG_02161; 48 µg/mL, 3 h; reference: untreated): 1.32
O=C(O)c1ccc(-c2nc(-c3ccccc3Cl)c3sccn23)cc1  CFU-GM colony count (CD34+ hematopoietic stem cells, human; 0.1 mM): 66 and 71
COc1ccccc1-c1n[nH]c2nc(NC3CCN(C(=O)Cc4ccc(F)cc4F)CC3)ncc12  relative abundance (bead binding, competition bead pull-down, measured: LINJ.06.0370; Leishmania donovani axenic amastigote extract; 10 µM; reference: vehicle): 1.13
CC(C)(C)C(=O)OCOP(=O)(OCOC(=O)C(C)(C)C)C1CCCN(O)C1=O (centres unmarked)  CC50 (COLO 205): 40.9 µM
CC[C@H](C)CCCCC(=O)N[C@@H](CCN)C(=O)N[C@H](C(=O)N[C@@H](CCN)C(=O)N[C@H]1CCNC(=O)[C@H]([C@@H](C)O)NC(=O)[C@H](CCN)NC(=O)[C@H](CCN)NC(=O)[C@H](CC(C)C)NC(=O)[C@@H](CC(C)C)NC(=O)[C@H](CCN)NC1=O)[C@@H](C)O  MIC fold change (Escherichia coli; daily serial passaging; ATCC 8739; highest sub-MIC, 19 days; reference: initial MIC): 1.63
Cc1cc(C(=O)Nc2nc3cccc(C)c3n2[C@H]2CCCCN(C(=O)/C=C/CN(C)C)C2)ccn1  cell growth (Trypanosoma brucei brucei; CLK1 C215S mutant expressing; 5 x EC50, 36 h): 4600% and 4530% and 5870%
CCc1nn(C)c2nc(-c3ccc(C(=O)O)cc3)nc(NCc3ccccc3)c12  parasite number (Cryptosporidium parvum; HCT-8; 12 x EC90, 72 h; reference: DMSO control): 25.4% and 27.1% and 28.5% and 29.9%
[2H]C([2H])([18F])[C@]([2H])(N)C(=O)O  maximum cellular uptake (MIA PaCa-2 tumour model; host not given; 30 min): 4 ± 0.3 %ID/100 µg protein
CCc1nc2ccc(OC(F)(F)F)cn2c1C(=O)NCc1ccc2oc(-c3ccc(Cl)cc3)nc2c1  MIC (Mycolicibacterium smegmatis; 72 h): > 25 µM
O=C(NCc1cc(F)cc(F)c1)[C@@]1(O)CCN(c2ccc3[nH]ccc3c2)C1=O  median survival time (sample D PDX mouse; dose not given, RTV endpoint 500%): 22.5 days
Cc1nc2ccc(C(F)(F)F)cn2c1C(=O)NCc1ccc2oc(-c3ccc(OC(F)(F)F)cc3)nc2c1  MIC90 (Mycolicibacterium smegmatis): > 100 µM
CCN(CC)C(=O)[C@@H]1C=C2c3cccc4c3c(cn4C(=O)c3cccs3)C[C@H]2N(C)C1  time to peak head-twitch response (magnetometer detection; mouse C57BL/6J male; intraperitoneal, dose not given, lower doses, 5 min blocks): 10 to 15 min
CC(C)CC(C(=O)N1CC2(CC1C#N)C(=O)Nc1ccccc12)N(C)C(=O)c1cc2c(F)cc(F)c(F)c2[nH]1 (centres unmarked)  inhibition (Human coronavirus 229E; cytopathic effect; MRC5; 20 nM): 112%
CCc1nc2ccc(Br)cn2c1C(=O)NCc1ccc2oc(-c3ccc(OC(F)(F)F)cc3)nc2c1  MIC (Mycolicibacterium smegmatis; 72 h): > 50 µM
COc1ccccc1-c1n[nH]c2nc(N[C@H]3CC[C@H](NS(=O)(=O)CC(C)C)CC3)ncc12  relative abundance (bead binding, competition bead pull-down, measured: LINJ.36.5330; Leishmania donovani extract; 10 µM; reference: vehicle): 1.68
NC[C@]1(CC(=O)O)CC[C@H]([18F])CC1  K1 change (PET; rhesus monkey, whole brain; dose not given, added: gabapentin pre-injection; reference: baseline): -35%

Some of these lines once more:
NCCCO.O=C(O)C(Cl)Cl  inhibition (Amaranthus retroflexus; herbicidal activity; 15 mg/mL, 21 days, pre-emergence greenhouse): 0%
CC[C@H](C)[C@H](NC(=O)[C@H](CC(=O)O)NC(=O)[C@@H](NC(=O)[C@@H]1CCCN1C(=O)[C@@H](N)CCCNC(=N)N)[C@@H](C)O)C(=O)N[C@@H](CCCCN)C(=O)N[C@H]1CSSC[C@@H]2NC(=O)[C@H](CCCNC(=N)N)NC(=O)CNC(=O)[C@H](CC(N)=O)NC(=O)[C@H]([C@@H](C)O)NC(=O)[C@H](CCCCN)NC(=O)CNC(=O)[C@H](Cc3ccccc3)NC(=O)[C@H](CCCNC(=N)N)NC(=O)[C@H](CO)NC(=O)[C@H](CCCCNC(=O)OCc3cc(OC)c(OC)cc3[N+](=O)[O-])NC(=O)[C@@H]3CSSC[C@@H](C(=O)N[C@@H](Cc4ccccc4)C(=O)O)NC(=O)[C@H](CC(=O)O)NC(=O)[C@H](CSSC[C@H](NC(=O)[C@H](CCC(N)=O)NC(=O)[C@H](Cc4ccc(O)cc4)NC(=O)[C@H](CO)NC(=O)[C@H](CCC(=O)O)NC(=O)[C@H](CO)NC1=O)C(=O)N[C@@H](Cc1ccccc1)C(=O)N1CCC[C@H]1C(=O)N[C@@H](C(C)C)C(=O)N3)NC(=O)[C@H](Cc1ccccc1)NC(=O)CNC(=O)[C@H](CC(N)=O)NC(=O)[C@H](C(C)C)NC2=O  APD90 increase (human iPS-derived cardiomyocytes; 200 nM, after illumination 365 nm; reference: no illumination): 1.3 fold
